{"data": "Measured values collected from several papers", "note": "A part holds a random share of what one study measured."}
{"data": "Set 1", "target": "RNA binding protein fox-1 homolog 2, RRM domain, GST-SBP tag (RBFOX2, Homo sapiens, UniProt O43251-10, residues 100-194)", "method": "RNA Bind-n-Seq", "molecule type": "RNA", "medium": "in vitro", "tested at": "365 nM", "notes": "natural RNA segment, single round, ends assumed", "baseline": "no-protein control", "direction": "higher = stronger binding", "shared flanks, not repeated": "GGGAGUUCUACAGUCCGACGAUC … UGGAAUUCUCGGGUGCCAA", "Residues (chain)": "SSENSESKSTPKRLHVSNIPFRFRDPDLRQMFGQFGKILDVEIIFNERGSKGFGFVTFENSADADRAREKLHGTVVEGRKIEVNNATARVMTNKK"}
{"Sequence": "UAGUUCCGUUGUCAUCAAGCAGGAAGCAAAUGCAACACCGACCAAGGCAGUUUAGGUCAAGAGCUGAGCCAAGGUGCUUGAGGAAGGCUUUGCUACAGGAGUGUAGAGAC", "RBNS enrichment (R)": 0.312}
{"Sequence": "AUGCUUCUGUAUUUCACUCUUUCUCCCUAUUAGGGAGUUAUGCAAAAUUUGUCCCCGAUUUUACCUUUGUCUUUCUGUGUACUUUUCAAAGAGUCCUAAGGAGUUAAAUC", "RBNS enrichment (R)": 0.239}
{"Sequence": "GUUGUUCUGUGUAGCUUUGGCUCUCCUAGAACUUGCUCUGUAGACCAGGCUGGCCUUGAACACAGAAAGAGAUUCAUCUGCCUCUGCCUCCUGAGUGCUGGGAUUAAAGG", "RBNS enrichment (R)": 0.288}
{"Sequence": "GUGGUCCCAGCUACUUGGGAGGCUGAGGCAUGAGAAUUGCUUGAACCCGGGAAGUGAAGGUUGCCGUGAGCUGAGAUCACACCACUGCCAUAAACAUGACAGGCUUUUGG", "RBNS enrichment (R)": 0.987}
{"Sequence": "GACCUUUGAGGUCUAAACAAAUAAUACCCCCGUCGGAAUGGUAACCGAGCCAGCAGCUGAAGUCUCUUUUUCUUCCUCUCGGCUGGAAGAACAUCAAGAUACCUUUGCGU", "RBNS enrichment (R)": 0.36}
{"Sequence": "CUGGUCUGUUCAAUCCUGCCCUCUUUGGUGCUAGAUCCAGUUGUGCCUCAGAGCAGAAGAAACAAACCUGCUGUCUUGUUGGCCCAGUGUUUCAGUUUUGAAGUGUGUAC", "RBNS enrichment (R)": 0.699}
{"Sequence": "CUUUGCUGGCUUGUGCAGUGAUACUGAGAAAAUACAUGAACAGAAACUGCCCAGGUGGAACAGCACGUAACCUAGUGAGUGACUGUACUCCUUUCUAGGAAUGCUGAUUC", "RBNS enrichment (R)": 0.745}
{"Sequence": "GCAGCCUGUCUCCUGUUUUGAGCCCUUUAGGGGUAACUCAUUUGUAAAACCACCAGCCUGAGCUCAAGGAUGAGGCCACAGGGCUCUGGUGGACUUCAAAUCCCAGCUUU", "RBNS enrichment (R)": 1.14}
{"Sequence": "AGCCACGCCUCCCUGACCUAUCCCGGGACAGGGCCUCUUCCUCGGCCUUCCCAUAUUGGUGGCAGUGGUGCCACACUGAACAGAGUGGAAGACAUAUGCCAUGCAGCUAC", "RBNS enrichment (R)": 0.405}
{"Sequence": "CUCAGAUAAUUAAUUUGAAGCAAGAAAGAAGGUAAAAAUGAGGUUUCCCAGCCAUGUUGCUGCUUUUGGCAUGGUCGCUUCUCUGAGGUUCACCUAGGCUUUCACAGCAA", "RBNS enrichment (R)": 0.362}
{"Sequence": "UCCUUUAGCCUUAGCAGUGGGUAUGAGGUGUGCAGGGGGAGCUGGGUGGCUUCACUCCGCCCAUUCCAAAGAGGGCUCUCCCUCCACACUGCAGCCGGGAGCCUCUGCUG", "RBNS enrichment (R)": 0.334}
{"Sequence": "AAAGAGUUUCACUAUUUUGGAUAUAUUCUAAAGUGGACCUGAGCUAUUUGAGCAAAUAAUGAUAGGGCAUACUCAGACAUUUUAGCUACCUUUUAUACCUACGAUUUCAU", "RBNS enrichment (R)": 0.399}
{"data": "Set 2", "target": "Protein max, full length (MAX, Homo sapiens, UniProt P61244-2, residues 1-151)", "method": "protein-binding microarray", "molecule type": "double-stranded DNA, one strand shown", "medium": "in vitro", "tested at": "not given", "notes": "k-mer, scored over probes, only values ≥0.25", "direction": "higher = stronger binding"}
{"Sequence": "CTGCATGC", "E-score": 0.377}
{"Sequence": "ACACGCCT", "E-score": 0.357}
{"Sequence": "AACATGAT", "E-score": 0.275}
{"Sequence": "CGTGCAAA", "E-score": 0.317}
{"Sequence": "ATCCACGA", "E-score": 0.284}
{"Sequence": "ATGTGCGG", "E-score": 0.371}
{"Sequence": "CATATGTC", "E-score": 0.301}
{"Sequence": "TCGTGGCA", "E-score": 0.355}
{"Sequence": "AGGACACG", "E-score": 0.257}
{"Sequence": "GTCACGCA", "E-score": 0.337}
{"Sequence": "CACGCGGG", "E-score": 0.461}
{"Sequence": "CCATGCTA", "E-score": 0.36}
{"Sequence": "GCGTGCCC", "E-score": 0.374}
{"Sequence": "GTGCATGA", "E-score": 0.341}
{"Sequence": "CACGCTAG", "E-score": 0.37}
{"Sequence": "CGTGACTA", "E-score": 0.405}
{"Sequence": "ACGTGTTG", "E-score": 0.441}
{"Sequence": "ACCGCACG", "E-score": 0.329}
{"Sequence": "GTGATCAC", "E-score": 0.267}
{"data": "Set 3", "target": "Histone acetyltransferase KAT6A, winged helix 1, GST fusion (KAT6A, Homo sapiens, UniProt Q92794, residues 1-85)", "method": "protein binding microarray", "molecule type": "double-stranded DNA, one strand shown", "medium": "in vitro", "tested at": "not given", "notes": "8-mer, flanks averaged, mean of 2 arrays, mostly near background", "baseline": "not given", "direction": "higher = stronger binding", "Residues (chain)": "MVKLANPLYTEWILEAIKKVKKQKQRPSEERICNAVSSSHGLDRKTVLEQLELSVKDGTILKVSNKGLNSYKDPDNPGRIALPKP"}
{"Sequence": "CAATTTAG", "E-score": -0.175}
{"Sequence": "CAGCCGAC", "E-score": 0.35}
{"Sequence": "GTGCCCGA", "E-score": 0.0719}
{"Sequence": "CTGTGATA", "E-score": -0.149}
{"Sequence": "GTGTTCCA", "E-score": -0.107}
{"Sequence": "AGGCAGTG", "E-score": -0.0739}
{"Sequence": "GACTCTGC", "E-score": -0.156}
{"Sequence": "CAGGCACA", "E-score": -0.213}
{"Sequence": "AACAAGGA", "E-score": -0.103}
{"Sequence": "AACTTTGA", "E-score": -0.246}
{"Sequence": "CCCAGTAA", "E-score": -0.0424}
{"Sequence": "GGGCGTGA", "E-score": 0.219}
{"Sequence": "GCTTACAC", "E-score": 0.00131}
{"Sequence": "AGAGGCCA", "E-score": -0.105}
{"Sequence": "ACACCTAC", "E-score": 0.0353}
{"Sequence": "ACCATCGC", "E-score": 0.105}
{"Sequence": "CAGGGGCG", "E-score": 0.151}
{"Sequence": "AAATCTAT", "E-score": -0.094}
{"Sequence": "GAGGCAAA", "E-score": -0.233}
{"Sequence": "AGTGCTTC", "E-score": -0.219}
{"Sequence": "ACAATGGC", "E-score": -0.0686}
{"Sequence": "ATTTGCGC", "E-score": 0.218}
{"Sequence": "AAGGTCGA", "E-score": -0.033}
{"Sequence": "GCTCCACA", "E-score": -0.0285}
{"Sequence": "TAACCTAA", "E-score": -0.0965}
{"data": "Set 4", "target": "Interferon regulatory factor 7, full length, phosphomimetic (IRF7, Homo sapiens, UniProt Q92985, residues 1-503, S101K/S471D/S472D/S475D/S476D/S477D/S483D/S484D/S487D)", "method": "protein-binding microarray", "molecule type": "double-stranded DNA, one strand shown", "medium": "in vitro", "tested at": "250 nM", "notes": "60-bp whole probe", "added": "salmon DNA 0.4 mg/ml", "baseline": "random background probes", "direction": "higher = stronger binding", "shared flanks, not repeated": "GCCTAGCAC … GTCTTGATTCGCTTGACGCTGCTG", "Construct (chain)": "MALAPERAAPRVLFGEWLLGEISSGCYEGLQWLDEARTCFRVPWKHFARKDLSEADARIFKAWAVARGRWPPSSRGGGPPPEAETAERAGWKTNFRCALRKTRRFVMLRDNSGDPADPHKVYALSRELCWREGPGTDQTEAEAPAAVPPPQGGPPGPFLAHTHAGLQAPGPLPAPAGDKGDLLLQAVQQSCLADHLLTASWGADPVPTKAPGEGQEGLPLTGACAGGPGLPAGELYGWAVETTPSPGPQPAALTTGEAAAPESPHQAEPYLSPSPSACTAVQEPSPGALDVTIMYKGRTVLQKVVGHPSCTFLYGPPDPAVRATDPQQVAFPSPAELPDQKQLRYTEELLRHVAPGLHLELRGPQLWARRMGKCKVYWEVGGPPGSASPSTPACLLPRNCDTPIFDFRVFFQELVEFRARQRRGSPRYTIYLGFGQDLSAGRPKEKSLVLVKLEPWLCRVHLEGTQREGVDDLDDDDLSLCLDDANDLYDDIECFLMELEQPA"}
{"Sequence": "TTAGATATCGGGTTTCGATCAGTGCTA", "log fluorescence": "2.8 z-score"}
{"Sequence": "TTAGGTTTCCTTTCCCTTTCGTGCTAG", "log fluorescence": "4.5 z-score"}
{"Sequence": "ATGGCTTTGCCTTTTGCTTTGTGCTAG", "log fluorescence": "-1.04 z-score"}
{"Sequence": "TTAGATCTCAGTCTCGTTTAGTGCTAG", "log fluorescence": "2.15 z-score"}
{"Sequence": "TTAGGTTCCGATTTCGGTTAGTGCTAG", "log fluorescence": "5.8 z-score"}
{"Sequence": "GACGGTTTCGGACTGGGGGCGTGCTAG", "log fluorescence": "5.11 z-score"}
{"Sequence": "TTAGATATCAGTATCGATGAGTGCTAG", "log fluorescence": "-0.0347 z-score"}
{"Sequence": "GACGGACTGGGGCTCGGGACGTGCTAG", "log fluorescence": "-0.511 z-score"}
{"Sequence": "GACGGACTGGATTTCGGGACGTGCTAG", "log fluorescence": "-0.325 z-score"}
{"Sequence": "AGCCGAACAGCAATCGGATGGTGCTAG", "log fluorescence": "-0.817 z-score"}
{"Sequence": "GAAGATGTGTATATGACAATGTGCTAG", "log fluorescence": "-0.561 z-score"}
{"Sequence": "TTAGATCACAGTTTCGATTAGTGCTAG", "log fluorescence": "8.43 z-score"}
{"Sequence": "TTAGGTGTCGGTTTCGGTTAGTGCTAG", "log fluorescence": "7.88 z-score"}
{"Sequence": "GACTGTCTCCTACTGCTGACGTGCTAG", "log fluorescence": "0.136 z-score"}
{"Sequence": "CAACCAATCATTTTTGCTTAGTGCTAG", "log fluorescence": "-0.403 z-score"}
{"Sequence": "TGGGAAATTCCTCTGAATAGGTGCTAG", "log fluorescence": "0.136 z-score"}
{"Sequence": "TCATGTTTGGCCCTGAAACTGTGCTAG", "log fluorescence": "0.403 z-score"}
{"Sequence": "TTAGGACTCGGACTGGGTTAGTGCTAG", "log fluorescence": "0.472 z-score"}
{"Sequence": "GACGGTCTCGGTATCCGGACGTGCTAG", "log fluorescence": "2.76 z-score"}
{"Sequence": "CCAAACCTGTGCGCCGTGCCGTGCTAG", "log fluorescence": "-0.203 z-score"}
{"Sequence": "AGGCTTTTTTTTTTTTTTTTGTGCTAG", "log fluorescence": "0.0587 z-score"}
{"Sequence": "GAAGGTCTCCTTCTCCTGACGTGCTAG", "log fluorescence": "0.105 z-score"}
{"Sequence": "TTAGATTTCAGACTGGTTTAGTGCTAG", "log fluorescence": "0.0678 z-score"}
{"Sequence": "ATACTGAGAAAGCACTGGACGTGCTAG", "log fluorescence": "0.116 z-score"}
{"Sequence": "TTAGGATTGGGGTATCGGTTAGTGCTA", "log fluorescence": "0.584 z-score"}
